Assay results of several laboratories.
± marks the error that the study gave. ≈ marks a conversion by molar mass, not a printed value.

Substance = CC[C@H]1OC(=O)[C@H](C)[C@@H](O[C@H]2C[C@@](C)(OC)[C@@H](O)[C@H](C)O2)[C@H](C)[C@@H](O[C@@H]2O[C@H](C)C[C@H](N(C)C)[C@H]2O)[C@](C)(O)C[C@@H](C)CN(C)[C@H](C)[C@@H](O)[C@]1(C)O; organism = other Enterobacteriaceae; system = community-acquired pneumonia patients; conditions = Fine score below 70; endpoint = sensitive strains; result = 0%
Substance = C[C@@H]1N[C@H](CCCCCCCCCCc2cc(CCCCCCCCCC[C@H]3CC[C@@H](O)[C@@H](C)N3)c[n+]3c2CCC3)CC[C@H]1O; organism = Leishmania donovani; assay = parasite growth; system = THP-1; conditions = intracellular, amastigote; endpoint = IC90; result = 9.49 µg/mL
Substance = CO[C@@H]1CC[C@@]2(C)[C@@H](C1)C[C@H](O)[C@@H]1[C@@H]2CC[C@]2(C)[C@@H]([C@H](C)CCC(=O)O)CC[C@@H]12; organism = Clostridioides difficile; assay = spore germination, inhibitor, OD600; system = NAP1; conditions = 20 min, with: 2000 µM taurocholate; endpoint = complete inhibition concentration; result = > 500 µM
Substance = CC[C@H]1OC(=O)[C@H](C)[C@@H](O[C@H]2C[C@@](C)(OC)[C@@H](O)[C@H](C)O2)[C@H](C)[C@@H](O[C@@H]2O[C@H](C)C[C@H](N(C)C)[C@H]2O)[C@](C)(O)C[C@@H](C)C(=O)[C@H](C)[C@@H](O)[C@]1(C)O; organism = other Enterobacteriaceae; system = community-acquired pneumonia patients; conditions = Fine score 70 or more; endpoint = sensitive strains; result = 0%
Substance = NCCNC(=O)CN1C(=O)Cc2c([nH]c3ccc(Br)cc23)-c2ccc(Cl)cc21; organism = Leishmania braziliensis; assay = intracellular amastigote infection, DAPI fluorescence microscopy; system = macrophages; conditions = 10 µM, 24 h, 5 µM if macrophages detach; how to read = lower = more active; endpoint = infected macrophages; result = 38 to 68%
Substance = CNC(=O)c1ccc(-c2cnn3ccc(C(=O)N(C[C@H]4CCC(=O)O4)c4ccc(OC(F)(F)F)cc4)cc23)cc1; organism = Cryptosporidium hominis; assay = cytopathic effect; system = HCT-8; conditions = 48 h; endpoint = EC50; result = 503 nM
Substance = O=C(Nc1ccc(F)cc1)Nc1nnc(SCC(O)(Cn2cncn2)c2ccc(F)cc2F)s1 (stereo not drawn); organism = Nannizzia gypsea; assay = broth microdilution; system = PTCC 5070; conditions = 48 h, 37 °C; endpoint = MIC90; result = 8 µg/mL (≈ 15.8 µM)
Substance = CC1(C)S[C@@H]2[C@H](NC(=O)[C@H](N)c3ccc(O)cc3)C(=O)N2[C@H]1C(=O)O; organism = Haemophilus influenzae; system = hospitalized pneumonia patients, clinical isolates; conditions = Fine score 70 or more; endpoint = susceptible isolates; result = 88.9%
Substance = Cc1ccc(S(=O)(=O)N2C(=O)CSC2c2ccc(Br)cc2)cc1 (stereo not drawn); organism = Lacticaseibacillus casei; assay = broth microdilution; system = NCIM 2651; endpoint = MIC; result = 8 µg/mL (≈ 19.4 µM)
Substance = CCCCCCCc1cc(=O)c2c(CC(=O)OC)cc(O)cc2o1; organism = Phyllosticta citricarpa; system = PDA plates; conditions = 10000 µg/mL, 504 h; endpoint = mycelial growth; result = 3.4 ± 0.1 cm
Substance = GYENPTYKFFEQMQN; organism = Loligo pealeii; assay = axonal transport; system = peptide, squid giant axon; conditions = cargo beads; endpoint = mean instantaneous velocity; result = 0.371 µm/s
Substance = O=C(Nc1nnc(SCC(O)(Cn2cncn2)c2ccc(F)cc2F)s1)Nc1ccccc1Br (stereo not drawn); organism = Nannizzia gypsea; assay = broth microdilution; system = PTCC 5070; conditions = 48 h, 37 °C; endpoint = MIC90; result = 16 µg/mL (≈ 28.1 µM)
Substance = Cc1ccccc1NC(=O)CSc1nc2ccccc2c(=O)n1-c1ccc(S(N)(=O)=O)cc1; organism = Candida albicans; assay = microbial growth, well diffusion; system = ATCC10231; conditions = 500 µg/mL, 72 h; endpoint = inhibition zone; result = 20 mm
Substance = O=C(Nc1ccccc1)Nc1nnc(SCC(O)(Cn2cncn2)c2ccc(F)cc2F)s1 (stereo not drawn); organism = Nannizzia gypsea; assay = broth microdilution; system = PTCC 5070; conditions = 48 h, 37 °C; endpoint = MIC90; result = 2 to 4 µg/mL (≈ 4.09 to 8.17 µM)
Substance = O=C(CN1C(=O)Cc2c([nH]c3ccc(Br)cc23)-c2ccc(Cl)cc21)N1CCCC1; organism = Leishmania braziliensis; assay = intracellular amastigote infection, DAPI fluorescence microscopy; system = macrophages; conditions = 10 µM, 24 h, 5 µM if macrophages detach; how to read = lower = more active; endpoint = infected macrophages; result = 15 to 68%

For quick reference, copied from above:
Substance = NCCNC(=O)CN1C(=O)Cc2c([nH]c3ccc(Br)cc23)-c2ccc(Cl)cc21; organism = Leishmania braziliensis; assay = intracellular amastigote infection, DAPI fluorescence microscopy; system = macrophages; conditions = 10 µM, 24 h, 5 µM if macrophages detach; how to read = lower = more active; endpoint = infected macrophages; result = 38 to 68%
Substance = CNC(=O)c1ccc(-c2cnn3ccc(C(=O)N(C[C@H]4CCC(=O)O4)c4ccc(OC(F)(F)F)cc4)cc23)cc1; organism = Cryptosporidium hominis; assay = cytopathic effect; system = HCT-8; conditions = 48 h; endpoint = EC50; result = 503 nM
